Assay results from different studies.
Compare with care: the assays were run in different laboratories. Values joined by “and” are separate records of one study, mostly repeats; a detail may differ. ± gives the spread as reported.

CC[C@H](C)[C@H](NC(=O)[C@@H]1CCCN1C(=O)[C@@H](NC(=O)[C@H](C)N)C(C)C)C(=O)N[C@@H](C)C(=O)N[C@@H](CCC(N)=O)C(=O)N[C@@H](CCCCN)C(=O)N[C@@H](CO)C(=O)N[C@@H](CCC(=O)O)C(=O)N1CCC[C@H]1C(=O)N[C@@H](Cc1ccccc1)C(=O)N[C@@H](CCCCN)C(=O)N[C@@H](CCCCN)C(=O)N[C@@H](CCCCN)C(=O)N[C@@H](CCCCNC(=O)CCCCCNC(=S)Nc1ccc2c(c1)C(=O)OC21c2ccc(O)cc2Oc2cc(O)ccc21)C(N)=O: “log2 fold change” 8.81 (BIRC2 (human); concentration not given, 10-fold competition; reference: no competitor).
CCOC(=O)CCc1ccc(N)cc1: “average chemical shift perturbation” 0.016 ppm (HBV core protein Cp149 dimer; solution NMR; 4 molar equivalents, pH 7.5, 295 K, average over eight residues; reference: apo Cp149 dimer).
O=c1c(-c2ccccc2F)c[nH]c2ccnc(Cl)c12 — result for “binding free energy change”: -1.42 kcal/mol (WDR5; reference: parent hit compound, negative = stronger binding).
Cc1cn(CC(=O)N(CC(=O)N[C@H]2COC[C@@H]2N(CC(=O)NCCOCCOCC(N)=O)C(=O)Cn2cnc3c(N)ncnc32)[C@H]2COC[C@@H]2NC(=O)CN(C(=O)Cn2cnc3c(N)ncnc32)[C@H]2COC[C@@H]2NC(=O)CN(C(=O)Cn2cnc3c(=O)[nH]c(N)nc32)[C@H]2COC[C@@H]2NC(=O)CN(C(=O)Cn2cc(C)c(=O)[nH]c2=O)[C@H]2COC[C@@H]2NC(=O)CN(C(=O)Cn2cnc3c(=O)[nH]c(N)nc32)[C@H]2COC[C@@H]2NC(=O)CN(C(=O)Cn2cc(C)c(=O)[nH]c2=O)[C@H]2COC[C@@H]2NC(=O)CN(C(=O)Cn2cnc3c(N)ncnc32)[C@H]2COC[C@@H]2NC(=O)CN(C(=O)Cn2cnc3c(=O)[nH]c(N)nc32)[C@H]2COC[C@@H]2N)c(=O)[nH]c1=O gave a Tm of 76.97 ± 0.34 °C (complementary DNA; duplex formation, UV melting; PBS; 1 µM, pH 7.2).
Cc1cccc(O[C@H]2CCC[C@@H](C(C)CNCc3ccncc3)C2)c1 (relative stereo) has an inhibition of 83% (kappa opioid receptor (human); binding, Cerep safety panel; 10 µM).
CCCCC(=O)N(C)c1ccc(O)cc1: “average chemical shift perturbation” 0.019 ppm (HBV core protein Cp149 dimer; solution NMR; 4 molar equivalents, pH 7.5, 295 K, average over eight residues; reference: apo Cp149 dimer).
Cc1ncsc1-c1ccc(CNC(=O)[C@@H]2C[C@@H](O)CN2C(=O)[C@@H](NC(=O)C2(F)CC2)C(C)(C)C)c(OCCC2CCN(c3nc(N(C)CCNC(=O)C(C)C)nc(N4CCn5nnc(CO)c5C4)n3)CC2)c1 has a cooperativity alpha of 6.2 (BRD9 and VHL-elongin C-elongin B; SPR; immobilized BRD9; reference: binary KD over ternary KD).
With CCCCCC(O)/C=C/C=O (stereo not shown) the isoTOP-ABPP ratio was 1.9 (hippocalcin (human); IA-probe cysteine labelling, covalent modifier, competitive isoTOP-ABPP; proteome, soluble, MDA-MB-231; 100 µM, 60 min, in vitro; reference: DMSO over compound, higher = stronger blockade).
For O=c1c(-c2cccc(F)c2)c[nH]c2ccnc(Cl)c12, “binding free energy change” read -0.61 kcal/mol (WDR5; reference: parent hit compound, negative = stronger binding).
CCC1Sc2ccc(S(=O)(=O)CCC(=O)Nc3cccc4ccccc34)cc2NC1=O (stereo not shown) has an inhibition ratio of 0.7 and 0.87 and 0.78 and 0.88 (P2X7; ATP-evoked current, inhibitor, whole-cell patch clamp; 30 µM; reference: ATP alone).
Cc1ncsc1-c1ccc(CNC(=O)[C@@H]2C[C@@H](O)CN2C(=O)[C@@H](NC(=O)C2(F)CC2)C(C)(C)C)c(OCCC2CCN(c3nc(NCC(C)(C)C4(O)CCOC4)nc(N4CCC[C@H]4Cn4ccnn4)n3)CC2)c1 (stereo partly shown) has a cooperativity alpha of 2.8 (BRD9 and VHL-elongin C-elongin B; SPR; immobilized BRD9; reference: binary KD over ternary KD).
CCCCCCc1ccc(N)cc1 — result for “average chemical shift perturbation”: 0.052 ppm (HBV core protein Cp149 dimer; solution NMR; 4 molar equivalents, pH 7.5, 295 K, average over eight residues; reference: apo Cp149 dimer).
With C=CC(=O)N1[C@@H](c2ccc3c(c2)OCO3)c2[nH]c3ccccc3c2C[C@H]1C(=O)N1CCN(C)CC1 the relative co-enrichment was 103% (human cyclin E1 wild type-3xFLAG:CDK2; co-IP with TMT proteomics, refers to: HSPA8; concentration not given, P11142; reference: wild type DMSO).
Under “average chemical shift perturbation”, CCCCC(=O)N(Cc1ccccc1)c1ccc(OCc2ccccc2)cc1 is recorded as 0.015 ppm (HBV core protein Cp149 dimer; solution NMR; 4 molar equivalents, pH 7.5, 295 K, average over eight residues; reference: apo Cp149 dimer).
For Nc1ncc(-c2cc(-c3cnn(CC(F)(F)F)c3)ncc2F)nc1C(=O)NC1CNCC(F)C1 (stereo not shown), the remaining binding was 88% (NEK11; KINOMEscan; 1 µM; reference: DMSO control).
Cc1ncc(CNc2nc(N3CC(CCOc4cc(-c5scnc5C)ccc4CNC(=O)[C@@H]4C[C@@H](O)CN4C(=O)[C@@H](NC(=O)C4(F)CC4)C(C)(C)C)C3)nc(N3CCC[C@H]3Cn3ccnn3)n2)c(N)n1 has a cooperativity alpha of 4.8 (BRD9 and VHL-elongin C-elongin B; SPR; immobilized BRD9; reference: binary KD over ternary KD).
For c1ccc(-c2n[nH]cc2-c2ccnc3ccccc23)nc1, “log2 fold change” read -0.36 (TOR1 (Candida albicans); kinase binding, MIB/MS competition; Candida albicans lysate; 10 µM; reference: DMSO).
CCCCCCc1ccc(OC)cc1: “average chemical shift perturbation” 0.029 ppm (HBV core protein Cp149 dimer; solution NMR; 4 molar equivalents, pH 7.5, 295 K, average over eight residues; reference: apo Cp149 dimer).
C#CCN1CCN(c2nc(N3CCC(CCOc4cc(-c5scnc5C)ccc4CNC(=O)[C@@H]4C[C@@H](O)CN4C(=O)[C@@H](NC(=O)C4(F)CC4)C(C)(C)C)CC3)nc(N3CCN(C(=O)C4CC4)C3)n2)CC1=O gave a cooperativity alpha of 0.58 (BRD9 and VHL-elongin C-elongin B; SPR; immobilized BRD9; reference: binary KD over ternary KD).
CCCCCCc1ccc(COC)cc1: “average chemical shift perturbation” 0.031 ppm (HBV core protein Cp149 dimer; solution NMR; 4 molar equivalents, pH 7.5, 295 K, average over eight residues; reference: apo Cp149 dimer).
For C=CC(=O)Nc1cccc(Cn2ncc3cnc(Nc4cnn(CCOC)c4)nc32)c1, “percent of control” read 11% (SRPK1 human; binding, KINOMEscan; 100 nM; lower = stronger binding).
CCCCCCc1ccc2cc(OC)ccc2c1 — result for “average chemical shift perturbation”: 0.009 ppm (HBV core protein Cp149 dimer; solution NMR; 4 molar equivalents, pH 7.5, 295 K, average over eight residues; reference: apo Cp149 dimer).
The pIC50 of Fc1ccc(Nc2nc(NC3CCCCC3)c3ccccc3n2)cc1F is reported as 5.7 (β2AR/β1AR ICL3 chimera; β-arrestin2 recruitment, antagonist, BRET; together with: isoprenaline 1 µM).
CC(C)CCc1ccc(N)cc1 — result for “average chemical shift perturbation”: 0.064 ppm (HBV core protein Cp149 dimer; solution NMR; 4 molar equivalents, pH 7.5, 295 K, average over eight residues; reference: apo Cp149 dimer).
Fc1ccc(Nc2nc(NC3CCCCC3)c3cc(Br)ccc3n2)cc1F gave a maximal inhibition of 0.1% (β2AR/β1AR ICL3 chimera; β-arrestin2 recruitment, antagonist, BRET; reference: isoprenaline maximal response).

Some of these lines once more:
CCCCC(=O)N(C)c1ccc(O)cc1: “average chemical shift perturbation” 0.019 ppm (HBV core protein Cp149 dimer; solution NMR; 4 molar equivalents, pH 7.5, 295 K, average over eight residues; reference: apo Cp149 dimer).
Cc1ncsc1-c1ccc(CNC(=O)[C@@H]2C[C@@H](O)CN2C(=O)[C@@H](NC(=O)C2(F)CC2)C(C)(C)C)c(OCCC2CCN(c3nc(N(C)CCNC(=O)C(C)C)nc(N4CCn5nnc(CO)c5C4)n3)CC2)c1 has a cooperativity alpha of 6.2 (BRD9 and VHL-elongin C-elongin B; SPR; immobilized BRD9; reference: binary KD over ternary KD).
With CCCCCC(O)/C=C/C=O (stereo not shown) the isoTOP-ABPP ratio was 1.9 (hippocalcin (human); IA-probe cysteine labelling, covalent modifier, competitive isoTOP-ABPP; proteome, soluble, MDA-MB-231; 100 µM, 60 min, in vitro; reference: DMSO over compound, higher = stronger blockade).
For O=c1c(-c2cccc(F)c2)c[nH]c2ccnc(Cl)c12, “binding free energy change” read -0.61 kcal/mol (WDR5; reference: parent hit compound, negative = stronger binding).
